Measured values from different studies.
Each numbered part is a random draw from the data of one study; scales do not carry over between parts.
UniProt P61075, sequence (whole entry, looked up): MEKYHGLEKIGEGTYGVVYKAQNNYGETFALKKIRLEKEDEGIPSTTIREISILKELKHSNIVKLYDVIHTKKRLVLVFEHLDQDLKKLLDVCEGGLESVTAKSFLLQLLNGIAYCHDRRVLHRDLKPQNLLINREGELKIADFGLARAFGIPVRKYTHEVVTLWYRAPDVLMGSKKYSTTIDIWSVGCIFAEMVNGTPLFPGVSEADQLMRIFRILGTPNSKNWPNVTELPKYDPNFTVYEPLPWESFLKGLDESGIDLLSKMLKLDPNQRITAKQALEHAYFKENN
UniProt P08908, sequence (whole entry, looked up): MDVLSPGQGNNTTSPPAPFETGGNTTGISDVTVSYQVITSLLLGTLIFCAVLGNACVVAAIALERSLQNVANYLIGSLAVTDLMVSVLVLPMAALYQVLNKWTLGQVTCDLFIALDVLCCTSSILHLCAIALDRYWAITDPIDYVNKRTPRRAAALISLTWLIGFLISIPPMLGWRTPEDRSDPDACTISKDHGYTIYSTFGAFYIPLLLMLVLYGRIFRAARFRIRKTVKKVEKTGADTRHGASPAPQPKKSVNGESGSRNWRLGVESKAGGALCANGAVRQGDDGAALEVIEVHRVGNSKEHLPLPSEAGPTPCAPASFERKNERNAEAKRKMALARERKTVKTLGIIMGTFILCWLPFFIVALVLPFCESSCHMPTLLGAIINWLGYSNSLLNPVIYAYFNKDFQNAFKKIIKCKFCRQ
UniProt P9WI81, sequence (whole entry, looked up): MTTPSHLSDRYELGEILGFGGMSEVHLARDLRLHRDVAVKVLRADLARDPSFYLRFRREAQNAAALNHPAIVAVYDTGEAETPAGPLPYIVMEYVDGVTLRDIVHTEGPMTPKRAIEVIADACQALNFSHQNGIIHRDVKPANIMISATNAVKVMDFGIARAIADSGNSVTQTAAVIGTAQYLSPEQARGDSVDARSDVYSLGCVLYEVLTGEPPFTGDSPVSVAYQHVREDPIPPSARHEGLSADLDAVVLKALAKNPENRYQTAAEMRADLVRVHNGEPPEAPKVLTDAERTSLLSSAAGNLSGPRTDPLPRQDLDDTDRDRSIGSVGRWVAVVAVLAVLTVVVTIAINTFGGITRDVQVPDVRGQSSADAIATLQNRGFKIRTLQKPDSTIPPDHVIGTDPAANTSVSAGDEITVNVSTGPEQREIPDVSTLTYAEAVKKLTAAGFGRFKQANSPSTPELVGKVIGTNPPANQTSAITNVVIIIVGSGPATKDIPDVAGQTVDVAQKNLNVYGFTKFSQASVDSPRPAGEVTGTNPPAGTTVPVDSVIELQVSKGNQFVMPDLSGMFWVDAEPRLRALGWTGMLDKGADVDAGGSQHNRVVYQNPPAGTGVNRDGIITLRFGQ
UniProt P28222, sequence (whole entry, looked up): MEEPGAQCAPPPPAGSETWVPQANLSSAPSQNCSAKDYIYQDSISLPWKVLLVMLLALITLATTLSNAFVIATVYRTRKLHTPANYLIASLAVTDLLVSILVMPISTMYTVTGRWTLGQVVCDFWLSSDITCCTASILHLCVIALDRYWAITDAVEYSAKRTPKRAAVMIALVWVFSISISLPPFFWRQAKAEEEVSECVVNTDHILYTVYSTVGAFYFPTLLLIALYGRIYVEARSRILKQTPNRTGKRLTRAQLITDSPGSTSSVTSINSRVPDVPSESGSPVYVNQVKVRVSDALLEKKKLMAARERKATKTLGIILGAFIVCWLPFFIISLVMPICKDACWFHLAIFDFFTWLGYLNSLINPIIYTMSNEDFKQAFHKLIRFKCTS

Sample 1
Organism: Sarcocystis neurona
Observed: parasite growth
Tested at: 10 µM
Quantity: inhibition
Structure (SMILES) = CC(C)[C@]12O[C@H]1[C@@H]1O[C@]13[C@]1(O[C@H]1C[C@H]1C4=C(CC[C@@]13C)C(=O)OC4)[C@@H]2O; result = 85.7%
Structure (SMILES) = C[C@]12CC[C@H]3[C@@H](CCC4=CC(=O)CC[C@@H]43)[C@@H]1CC[C@@H]2O; result = 5.9%
Structure (SMILES) = O=C(O)C(Cl)Cl; result = -20.3%
Structure (SMILES) = CC[C@]1(O)CC[C@H]2[C@@H]3CCC4=CCCC[C@@H]4[C@H]3CC[C@@]21C; result = -29.5%
Structure (SMILES) = Oc1cc(Cl)ccc1Oc1ccc(Cl)cc1Cl; result = 18.2%
Structure (SMILES) = CCC1(c2ccc(N)cc2)CCC(=O)NC1=O (stereo not shown); result = -28%

Sample 2
Cell line: HEK-293T-ACE2-TMPRSS2
Method: cell count
Tested at: concentration not given
Quantity: viability
SMILES = COc1ccc(-c2ccc(Nc3ccc(C)c(C)c3)nn2)cc1S(=O)(=O)N1CCCC1; result = 82%
SMILES = COc1ccc(C2(C(=O)N3CCC(Cc4nc(-c5ccccc5)no4)CC3)CC2)cc1; result = 78%
SMILES = Cc1cccc(CNC(=O)C2CCN(S(=O)(=O)c3cc(-c4noc(C5CC5)n4)ccc3C)CC2)c1; result = 69%
SMILES = Cc1ccc(NC2CCCN(C(=O)c3cc(=O)c4ccccc4o3)C2)cc1C (stereo not shown); result = 112%
SMILES = CCN(CC)CCNC(=O)c1ccc(Nc2cc(-c3cccc(C)c3)ncn2)cc1; result = 67%
SMILES = CCCS(=O)(=O)c1ncc(Cl)c(C(=O)N(Cc2ccccc2)Cc2ccco2)n1; result = 73%
SMILES = COCCCN1CCn2c(nc3cc(NC(=O)NC4CCCCC4)ccc32)C1; result = 76%
SMILES = CCCc1cnc(-c2cc(F)ccc2C)nc1; result = 70%
SMILES = Cc1cc2c(cc1O)NC(=O)CC2c1c[nH]nc1-c1ccc(F)cc1 (stereo not shown); result = 102%
SMILES = OCC1(CCOc2ccccc2)CCCN(c2ncnc3c2CCC3)C1 (stereo not shown); result = 70%
SMILES = CC(=O)Oc1cccc(C2OC(c3cccc(Br)c3)=NN2C(C)=O)c1OC(C)=O (stereo not shown); result = 73%
SMILES = Cn1c(CN2CCN(C(=O)c3ccc4c(c3)OCO4)CC2)nc2cc(C(=O)N3CCCC3)ccc21; result = 85%
SMILES = CN(CC(=O)Nc1nc2ccc(Cl)cc2s1)S(=O)(=O)c1c[nH]c(C(=O)N2CCCCC2)c1; result = 72%
SMILES = CN(Cc1cccc2cnccc12)S(=O)(=O)NCc1ccccc1; result = 109%
SMILES = CCOc1ccc(CCNc2ncnc3c2nc2n3CCCCC2)cc1OCC; result = 73%
SMILES = COC(=O)CCS(=O)(=O)c1nc(-c2cccs2)cc(C(F)(F)F)n1; result = 83%

Sample 3
Cell line: HEK-293T-ACE2
Tested at: concentration not given
Reference: vehicle
Quantity: cell number
SMILES = O=C(O)C(=O)O.[NH-][C@@H]1CCCC[C@H]1[NH-].[Pt+2]; result = 100%
SMILES = O=C([O-])[C@H](O)[C@@H](O)[C@H](O)[C@H](O)CO.[Na+]; result = 101%
SMILES = O=C([O-])/C=C/C(=O)[O-].[Fe+2]; result = 84.8%
SMILES = CCN1CC(CCN2CCOCC2)C(c2ccccc2)(c2ccccc2)C1=O.Cl.O (stereo not shown); result = 81.6%
SMILES = C=CCN1CC[C@]23c4c5ccc(O)c4O[C@H]2[C@@H](OCCOCCOCCOCCOCCOCCOCCOC)CC[C@@]3(O)[C@H]1C5.O=C(O)C(=O)O; result = 101%
SMILES = Cl.NCC(=O)CCC(=O)O; result = 99.4%
SMILES = CC(C(=O)[O-])c1cccc(Oc2ccccc2)c1.CC(C(=O)[O-])c1cccc(Oc2ccccc2)c1.[Ca+2] (stereo not shown); result = 103%
SMILES = C=C1c2c(Cl)ccc(O)c2C(=O)C2=C(O)[C@]3(O)C(=O)C(C(N)=O)=C(O)[C@@H](N(C)C)[C@@H]3[C@@H](O)[C@H]12.O=C(O)c1cc(S(=O)(=O)O)ccc1O; result = 102%
SMILES = CNC(=C[N+](=O)[O-])NCCSCc1ccc(CN(C)C)o1; result = 104%
SMILES = Cc1nc2n(c(=O)c1CCN1CCC(c3noc4cc(F)ccc34)CC1)CCCC2; result = 97.8%
SMILES = Nc1nc2[nH]cc(CCc3ccc(C(=O)N[C@@H](CCC(=O)O)C(=O)O)cc3)c2c(=O)[nH]1; result = 89.7%
SMILES = S=c1nc[nH]c2nc[nH]c12; result = 103%
SMILES = O=C([O-])c1ccccc1[O-].[Bi+3].[OH-]; result = 99.4%
SMILES = CCCCC(O)c1ccccc1 (stereo not shown); result = 96.1%

Other studies, line by line
Structure (SMILES) = CN(C)[C@H]1CCN(c2cc(-c3ccccc3)nc3ccnn23)C1; target = 5-hydroxytryptamine receptor 1A (HTR1A, Homo sapiens, UniProt P08908); observed = cell-free assay; tested at = 10 µM; quantity = inhibition; result = 19.3%
Structure (SMILES) = Cc1c(NC(=O)c2cc(C(N)=O)nc3cc(F)ccc23)c(C(F)(F)F)nn1Cc1ccc(C(C)(C)C)cc1; target = Cyclin-dependent kinase 2 homolog (CRK2, Plasmodium falciparum, UniProt P61075); observed = cell-free assay; method = competition with immobilised ligand; tested at = 1 µM; quantity = remaining binding; result = 100%
Structure (SMILES) = CN(C)c1ncnc(-c2ccc3nc(Nc4cc(CN5CCN(C(=O)CC(F)(F)F)CC5)ccn4)[nH]c3c2)c1Cl; target = Serine/threonine-protein kinase PknB (pknB, Mycobacterium tuberculosis, UniProt P9WI81); observed = cell-free assay; method = competition with immobilised ligand; tested at = 1 µM; quantity = remaining binding; result = 100%
Structure (SMILES) = CNC(=N)NCCC[C@H](NC(=O)[C@H](CC(C)C)NC(=O)NNC(=O)[C@H](Cc1ccccc1)NC(=O)[C@H](CO)NC(=O)[C@H](CC(N)=O)NC(=O)[C@@H](Cc1cccnc1)NC(=O)[C@H](N)Cc1ccc(O)cc1)C(=O)NCC(N)=O; target = 5-hydroxytryptamine receptor 1B (HTR1B, Homo sapiens, UniProt P28222); observed = ligand displacement; method = radioligand; tested at = 10 µM; quantity = inhibition; result = 31%

Some of these lines once more (sample 2):
SMILES = COCCCN1CCn2c(nc3cc(NC(=O)NC4CCCCC4)ccc32)C1; result = 76%
SMILES = CCCc1cnc(-c2cc(F)ccc2C)nc1; result = 70%
SMILES = Cc1cc2c(cc1O)NC(=O)CC2c1c[nH]nc1-c1ccc(F)cc1 (stereo not shown); result = 102%
SMILES = OCC1(CCOc2ccccc2)CCCN(c2ncnc3c2CCC3)C1 (stereo not shown); result = 70%
